# Measurements pooled from the literature.
# Numbered parts are unrelated; each lists some results of a single study. Values joined by “and” are separate records of one study, mostly repeats; a detail may differ.
# Sequence of UniProt P54753 (whole entry, looked up): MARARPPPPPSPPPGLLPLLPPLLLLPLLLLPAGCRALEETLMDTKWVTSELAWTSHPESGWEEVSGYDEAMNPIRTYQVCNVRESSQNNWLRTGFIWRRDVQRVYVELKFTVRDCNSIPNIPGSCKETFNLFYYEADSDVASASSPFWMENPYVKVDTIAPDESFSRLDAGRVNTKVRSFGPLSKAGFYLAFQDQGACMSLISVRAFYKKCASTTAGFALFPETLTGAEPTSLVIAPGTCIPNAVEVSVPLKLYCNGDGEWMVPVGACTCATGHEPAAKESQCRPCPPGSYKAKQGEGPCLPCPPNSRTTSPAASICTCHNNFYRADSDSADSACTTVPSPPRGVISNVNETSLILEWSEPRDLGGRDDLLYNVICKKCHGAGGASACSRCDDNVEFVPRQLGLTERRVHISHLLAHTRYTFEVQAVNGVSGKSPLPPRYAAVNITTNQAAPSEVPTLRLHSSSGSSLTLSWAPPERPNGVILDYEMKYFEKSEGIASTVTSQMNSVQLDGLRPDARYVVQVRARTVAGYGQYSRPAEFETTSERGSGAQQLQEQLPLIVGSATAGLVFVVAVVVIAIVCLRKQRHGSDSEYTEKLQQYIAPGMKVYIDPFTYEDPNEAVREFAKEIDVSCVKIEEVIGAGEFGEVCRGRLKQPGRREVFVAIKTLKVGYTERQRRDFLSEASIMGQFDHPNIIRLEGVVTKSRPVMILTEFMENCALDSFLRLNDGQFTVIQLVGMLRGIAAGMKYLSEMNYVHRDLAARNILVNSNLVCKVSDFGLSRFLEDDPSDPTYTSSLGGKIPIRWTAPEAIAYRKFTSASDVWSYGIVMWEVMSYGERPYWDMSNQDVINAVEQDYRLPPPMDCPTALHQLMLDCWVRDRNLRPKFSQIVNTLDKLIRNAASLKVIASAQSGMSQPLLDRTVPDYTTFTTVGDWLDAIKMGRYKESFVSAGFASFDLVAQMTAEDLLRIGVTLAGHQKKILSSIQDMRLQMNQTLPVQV
# Sequence of UniProt Q06418 (whole entry, looked up): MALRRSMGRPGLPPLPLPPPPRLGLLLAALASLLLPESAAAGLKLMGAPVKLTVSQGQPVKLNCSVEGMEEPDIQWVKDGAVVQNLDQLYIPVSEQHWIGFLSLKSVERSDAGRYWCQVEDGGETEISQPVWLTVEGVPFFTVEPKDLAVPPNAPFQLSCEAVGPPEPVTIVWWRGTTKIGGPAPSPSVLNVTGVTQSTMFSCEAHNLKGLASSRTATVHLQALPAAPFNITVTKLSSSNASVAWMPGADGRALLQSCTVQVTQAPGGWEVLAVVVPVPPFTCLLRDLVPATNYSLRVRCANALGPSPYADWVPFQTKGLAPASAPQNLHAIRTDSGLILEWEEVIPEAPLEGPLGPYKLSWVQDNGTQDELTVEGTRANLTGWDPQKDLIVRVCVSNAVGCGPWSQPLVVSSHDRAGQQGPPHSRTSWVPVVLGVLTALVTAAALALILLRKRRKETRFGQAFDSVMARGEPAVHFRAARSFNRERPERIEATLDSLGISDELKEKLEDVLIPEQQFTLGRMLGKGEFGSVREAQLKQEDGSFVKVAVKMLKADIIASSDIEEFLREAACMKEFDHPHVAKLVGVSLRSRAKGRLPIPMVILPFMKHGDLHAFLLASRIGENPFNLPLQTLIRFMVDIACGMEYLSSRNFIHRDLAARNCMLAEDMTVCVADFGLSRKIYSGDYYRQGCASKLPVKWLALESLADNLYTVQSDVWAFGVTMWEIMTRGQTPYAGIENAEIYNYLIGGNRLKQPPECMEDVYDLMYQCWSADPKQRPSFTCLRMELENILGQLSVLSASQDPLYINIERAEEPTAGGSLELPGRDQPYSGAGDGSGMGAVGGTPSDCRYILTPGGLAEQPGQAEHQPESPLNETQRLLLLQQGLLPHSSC
# Sequence of UniProt P23458 (whole entry, looked up): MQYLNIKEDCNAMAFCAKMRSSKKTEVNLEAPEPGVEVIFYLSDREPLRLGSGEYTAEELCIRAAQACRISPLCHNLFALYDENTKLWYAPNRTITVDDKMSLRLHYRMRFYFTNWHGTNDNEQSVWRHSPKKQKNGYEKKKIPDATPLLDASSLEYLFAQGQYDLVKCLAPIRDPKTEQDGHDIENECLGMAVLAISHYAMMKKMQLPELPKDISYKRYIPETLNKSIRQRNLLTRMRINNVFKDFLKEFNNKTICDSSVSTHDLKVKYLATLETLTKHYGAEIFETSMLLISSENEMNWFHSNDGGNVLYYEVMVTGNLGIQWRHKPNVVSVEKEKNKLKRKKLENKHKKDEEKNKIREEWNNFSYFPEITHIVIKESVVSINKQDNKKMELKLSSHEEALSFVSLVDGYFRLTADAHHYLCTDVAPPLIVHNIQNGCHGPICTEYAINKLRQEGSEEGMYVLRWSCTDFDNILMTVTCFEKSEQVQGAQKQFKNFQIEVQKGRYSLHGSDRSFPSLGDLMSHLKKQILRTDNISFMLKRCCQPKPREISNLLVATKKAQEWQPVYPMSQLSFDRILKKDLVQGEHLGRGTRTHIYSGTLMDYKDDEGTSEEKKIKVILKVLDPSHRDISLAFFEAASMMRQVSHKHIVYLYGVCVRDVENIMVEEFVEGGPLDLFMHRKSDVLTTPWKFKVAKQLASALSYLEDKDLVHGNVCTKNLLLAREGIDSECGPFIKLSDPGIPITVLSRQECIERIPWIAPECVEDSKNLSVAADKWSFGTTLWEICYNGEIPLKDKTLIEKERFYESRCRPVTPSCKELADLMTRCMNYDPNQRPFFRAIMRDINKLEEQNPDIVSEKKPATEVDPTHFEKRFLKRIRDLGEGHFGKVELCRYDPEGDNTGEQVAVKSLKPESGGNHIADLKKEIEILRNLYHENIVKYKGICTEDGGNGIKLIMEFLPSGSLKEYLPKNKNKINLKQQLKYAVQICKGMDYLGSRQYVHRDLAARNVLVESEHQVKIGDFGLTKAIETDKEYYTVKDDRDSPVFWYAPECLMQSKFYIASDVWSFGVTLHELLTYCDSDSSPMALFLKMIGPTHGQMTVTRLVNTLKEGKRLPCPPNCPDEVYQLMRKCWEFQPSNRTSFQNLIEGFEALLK
# Sequence of UniProt P21127 (whole entry, looked up): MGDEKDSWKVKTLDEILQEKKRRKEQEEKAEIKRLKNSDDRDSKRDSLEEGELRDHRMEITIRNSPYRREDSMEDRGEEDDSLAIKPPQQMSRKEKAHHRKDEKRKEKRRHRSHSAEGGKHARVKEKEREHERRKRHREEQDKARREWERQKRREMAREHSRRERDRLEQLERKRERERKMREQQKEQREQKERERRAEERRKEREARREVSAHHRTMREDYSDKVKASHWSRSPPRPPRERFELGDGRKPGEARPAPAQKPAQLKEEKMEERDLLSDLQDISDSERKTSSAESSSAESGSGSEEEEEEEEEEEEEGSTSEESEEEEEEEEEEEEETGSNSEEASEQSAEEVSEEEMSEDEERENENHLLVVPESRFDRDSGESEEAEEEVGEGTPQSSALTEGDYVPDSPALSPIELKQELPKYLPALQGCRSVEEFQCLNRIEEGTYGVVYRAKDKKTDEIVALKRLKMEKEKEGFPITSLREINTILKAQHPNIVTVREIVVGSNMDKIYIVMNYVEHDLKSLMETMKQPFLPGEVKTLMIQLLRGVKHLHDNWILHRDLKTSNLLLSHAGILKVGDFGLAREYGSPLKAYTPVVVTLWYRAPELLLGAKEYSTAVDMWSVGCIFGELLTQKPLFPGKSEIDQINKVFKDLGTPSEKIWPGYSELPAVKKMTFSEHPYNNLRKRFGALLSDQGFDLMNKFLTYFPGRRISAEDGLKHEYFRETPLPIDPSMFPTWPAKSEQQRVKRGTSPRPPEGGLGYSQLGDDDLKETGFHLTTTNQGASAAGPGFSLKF
# Sequence of UniProt O00141 (whole entry, looked up): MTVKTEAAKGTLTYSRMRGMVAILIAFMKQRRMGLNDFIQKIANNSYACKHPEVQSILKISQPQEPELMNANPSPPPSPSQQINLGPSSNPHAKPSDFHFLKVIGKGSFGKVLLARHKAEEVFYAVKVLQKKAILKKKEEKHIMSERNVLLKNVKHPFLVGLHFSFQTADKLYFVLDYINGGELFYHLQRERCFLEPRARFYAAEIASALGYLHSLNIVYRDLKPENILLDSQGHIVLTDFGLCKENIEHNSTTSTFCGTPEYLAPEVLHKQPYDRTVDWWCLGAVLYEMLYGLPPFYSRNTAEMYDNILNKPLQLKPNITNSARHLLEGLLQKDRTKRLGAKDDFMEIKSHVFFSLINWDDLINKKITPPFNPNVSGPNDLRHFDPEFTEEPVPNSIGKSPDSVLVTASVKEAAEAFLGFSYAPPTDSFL

# Study 1
# Cell line: mouse MPNST tumor cells
# Method: high-content immunofluorescence imaging
# Refers to: nuclear SOX9
# Concentration: 10 µM
# Time: 12 h
# Setting: mean of 2 replicates
# Relative to: DMSO control
# Direction: higher = more nuclear SOX9
Structure (SMILES),nuclear SOX9 intensity
CS(=O)(=O)Nc1ccc(-c2coc3cc(OCc4cccc(C(=O)O)c4)ccc3c2=O)cc1,90.5 % of DMSO
CCC(CC)(CC(=O)Nc1cccc(/C=C/c2nc(C3CCC3)cs2)c1)C(=O)O,89.1 % of DMSO
Nc1ncc2c(n1)CC(c1ccco1)CC2=O (stereo not shown),96.7 % of DMSO
CC(C)[C@H](N)C(=O)OCCOCn1cnc2c(=O)nc(N)[nH]c21,97.4 % of DMSO
CNCC[C@@H](Oc1ccccc1C)c1ccccc1,105 % of DMSO
CCOC(=O)O[C@]1(C(=O)OCCl)CC[C@H]2[C@@H]3CCC4=CC(=O)C=C[C@]4(C)[C@H]3[C@@H](O)C[C@@]21C,99.7 % of DMSO
COc1cc2c(cc1C(F)(F)F)N(C(=O)Nc1cc(F)cc(-c3cccnc3)c1)CC2,202 % of DMSO
CCOc1ccccc1OC(c1ccccc1)C1CNCCO1 (stereo not shown),99.5 % of DMSO and 95.9 % of DMSO

# Study 2
# SMILES: NS(=O)(=O)c1cc(NC(=O)Cc2ccccc2)ccc1Oc1cccc(Cl)c1
# Concentration: 1 µM
target,assay,remaining binding
"Serine/threonine-protein kinase pim-1 (PIM1, Homo sapiens, UniProt P11309)","cell-free assay, competition with immobilised ligand",89%
"Cyclin-dependent kinase 11B (CDK11B, Homo sapiens, UniProt P21127)","cell-free assay, competition with immobilised ligand",71%
"Ephrin type-B receptor 3 (EPHB3, Homo sapiens, UniProt P54753)","cell-free assay, competition with immobilised ligand",94%
"Tyrosine-protein kinase ABL1, non-phosphorylated (ABL1, Homo sapiens, UniProt P00519, T315I)","cell-free assay, competition with immobilised ligand",61%
"Tyrosine-protein kinase ABL1, phosphorylated (ABL1, Homo sapiens, UniProt P00519, F317I)",binding,72%
"Tyrosine-protein kinase JAK1, JH2 (JAK1, Homo sapiens, UniProt P23458)","cell-free assay, competition with immobilised ligand",87%
"Serine/threonine-protein kinase Sgk1 (SGK1, Homo sapiens, UniProt O00141)","cell-free assay, competition with immobilised ligand",87%
"Tyrosine-protein kinase receptor TYRO3 (TYRO3, Homo sapiens, UniProt Q06418)","cell-free assay, competition with immobilised ligand",76%

# Study 3
# Cell line: HaCaT
# Concentration: 100 µM
# Time: 18 h
Structure (SMILES),viability
Clc1ccc(C(c2ccccc2Cl)C(Cl)Cl)cc1 (stereo not shown),17.5%
NC(=O)CCCCC1CCSS1 (stereo not shown),100%
CCCCOc1ccc(C(=O)CCN2CCCCC2)cc1,58%
Cc1cc(Nc2ncc(Cl)c(Nc3ccccc3S(=O)(=O)C(C)C)n2)c(OC(C)C)cc1C1CCNCC1,17%
COc1cc(OC)c(C(=O)CCCN2CCCC2)c(OC)c1,107%
CCNC(=O)CCC/C=C\C[C@@H]1[C@@H](/C=C/[C@@H](O)CCc2ccccc2)[C@H](O)C[C@@H]1O,107%
N=C(N)NC(=O)Cc1c(Cl)cccc1Cl,118%
CCCCC[C@H](O)/C=C/[C@H]1[C@H](O)CC(=O)[C@@H]1CCCCCCC(=O)O,97.7%

# Other studies, line by line
SMILES,target,assay,setting,measurement,value
CO[C@H]1[C@@H](OC)C[C@H](C)[C@@H](OC)C2=CC(=O)C=C(NC(=O)/C(C)=C/C=C\[C@H](OC)[C@@H](OC(N)=O)/C(C)=C/[C@@H]1C)C2=O,"Dual specificity tyrosine-phosphorylation-regulated kinase 1B (DYRK1B, Homo sapiens, UniProt Q9Y463)","enzyme activity, inhibitor, radiometric",0.5 µM,remaining activity,104%

# Some of these lines once more (study 2):
target,assay,remaining binding
"Tyrosine-protein kinase ABL1, phosphorylated (ABL1, Homo sapiens, UniProt P00519, F317I)",binding,72%
"Tyrosine-protein kinase JAK1, JH2 (JAK1, Homo sapiens, UniProt P23458)","cell-free assay, competition with immobilised ligand",87%
"Serine/threonine-protein kinase Sgk1 (SGK1, Homo sapiens, UniProt O00141)","cell-free assay, competition with immobilised ligand",87%
